Results from different studies.
Every numbered part comes from another study and shows a few of its results, in no order. Substitutions count along the parent as printed.

Study 1 — technique: protein-binding microarray; molecule type: double-stranded DNA, one strand shown; medium: in vitro; concentration: 250 nM; notes: 60-bp whole probe; with: salmon DNA 0.4 mg/ml; reference: random background probes; reading: higher = stronger binding; all sequences stand within: GCCTAGCAC … GTCTTGATTCGCTTGACGCTGCTG
Target: Interferon regulatory factor 7, full length, phosphomimetic (IRF7, Homo sapiens, UniProt Q92985, residues 1-503, S101K/S471D/S472D/S475D/S476D/S477D/S483D/S484D/S487D)
Residues (chain): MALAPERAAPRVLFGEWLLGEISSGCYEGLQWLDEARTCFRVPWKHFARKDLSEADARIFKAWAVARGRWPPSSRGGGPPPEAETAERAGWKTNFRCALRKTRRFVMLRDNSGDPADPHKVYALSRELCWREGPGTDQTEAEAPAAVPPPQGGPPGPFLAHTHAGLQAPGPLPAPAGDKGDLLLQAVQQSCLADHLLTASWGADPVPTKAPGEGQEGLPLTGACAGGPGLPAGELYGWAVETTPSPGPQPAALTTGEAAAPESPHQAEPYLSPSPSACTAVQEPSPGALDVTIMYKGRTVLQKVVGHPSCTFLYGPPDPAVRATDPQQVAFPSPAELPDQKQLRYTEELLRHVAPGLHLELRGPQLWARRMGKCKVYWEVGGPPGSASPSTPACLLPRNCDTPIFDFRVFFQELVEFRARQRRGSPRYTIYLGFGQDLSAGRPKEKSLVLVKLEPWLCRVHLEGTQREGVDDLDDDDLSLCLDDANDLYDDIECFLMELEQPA
Sequence	log fluorescence
TTAGGACTGGCCACTGGGTTAGTGCTA	-0.674 z-score
TTTTGCTTTCTTTTATGCTCGTGCTAG	1.13 z-score
TTAGGTCTCCTTTTGCTTTAGTGCTAG	1.99 z-score
TTAGGAGTGCTTCTCCTTTAGTGCTAG	-0.429 z-score
TTAGGTTTCGGTTCCAGTTAGTGCTAG	12.3 z-score
TTAGGTTTCGGATTGGGTTAGTGCTAG	12.1 z-score
TTAGGTATCGGGACGGGGTTAGTGCTA	0.343 z-score
TTAGATATCGCGTATCGATTAGTGCTA	0.137 z-score
GACGATATCACTTTCGAGACGTGCTAG	0.826 z-score
CATTCTCTGTTTATGTCTGGGTGCTAG	4.91 z-score
TTAGATATCGGGTATCGATTCGTGCTA	2.48 z-score
TTAGGTATCGACTATCGGTTGGTGCTA	0.443 z-score
TCATTTTTCACCTGCACACTGTGCTAG	0.891 z-score
GACGATATCGAGACTGGAGACGTGCTA	0.418 z-score
GCCGGTTTCGACTATCGGGACGTGCTA	6.64 z-score
GACGGTTTCGGGTTTCGTGACGTGCTA	10.8 z-score
GAAGGACTGCTTATCCTGACGTGCTAG	-0.0787 z-score
GACGGTCTCGGTATCGGGAAGTGCTAG	2.45 z-score
TCATACCTCATCTTCCTCACTGTGCTA	1.09 z-score

Study 2 — technique: protein-binding microarray; molecule type: double-stranded DNA, one strand shown; medium: in vitro; concentration: 0.8 µM; notes: whole 60-bp probe, no competitor; reading: higher = stronger binding; all sequences stand within: … GTCTTGATTCGCTTGACGCTGCTG
Target: Centromere-binding protein 1, full length, N-terminal tag (CBF1, Saccharomyces cerevisiae, UniProt P17106, residues 1-351)
UniProt P17106, sequence (whole entry, looked up): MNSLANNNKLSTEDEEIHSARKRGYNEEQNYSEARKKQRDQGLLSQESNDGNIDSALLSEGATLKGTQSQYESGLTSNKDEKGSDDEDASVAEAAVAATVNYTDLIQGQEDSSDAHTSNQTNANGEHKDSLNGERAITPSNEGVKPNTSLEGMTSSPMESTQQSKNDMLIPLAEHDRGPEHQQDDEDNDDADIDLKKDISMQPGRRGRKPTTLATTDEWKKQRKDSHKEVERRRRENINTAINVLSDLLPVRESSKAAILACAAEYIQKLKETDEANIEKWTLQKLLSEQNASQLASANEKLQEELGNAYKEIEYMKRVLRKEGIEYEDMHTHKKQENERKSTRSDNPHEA
Sequence	fluorescence intensity
GAATTATTTTAAGGACATGTGAGCCATAGTGCATAG	1260 a.u.
GAAGGTATTCGTTAAATCGTGATAGTCATTTCCTAG	588 a.u.
GAATTTTTATGAGAAAACGTGAAAAAACTTCGTTAG	640 a.u.
CTAGCTTTTCTGTTACATGTGTGATTCTCTTCATTC	658 a.u.
GAAATGTACTTCTATTACAGCTGATTAAAAACATAG	625 a.u.
CCTAACTACTATATCTCCGTGCAATAGCTTCGTACA	508 a.u.
CCTAACTACTATAGTGTGATGTCATAGCTTCGTACA	579 a.u.
GAATTCAATAAATGTCACGAAAGGATTGTAGAATAG	625 a.u.
GAATAATATCCGCAGAACATGATGCTAAAAGCCTAG	563 a.u.
GAAACAATATTTATACATGTGCGTTAAATACTTTAG	925 a.u.
CTAAAACAGAGCAGTCATATGATCAAAATACAGTTC	2290 a.u.
CTAGTTAGAGGCTATAGCATCAGATATACAAAATTC	519 a.u.
GAACCTTGAAAACGGCATCAGGATGCACAAAAATAG	548 a.u.
CTAGGGTACTTGCGTCAGCTGTTCAGATCTTCTTTC	881 a.u.
GAAGAATACGAAAAACACGAGGTATACCAAGGCTAG	555 a.u.
CTAAAGTCTGGTATTAGCATCAGGTATACTTTATTC	507 a.u.
GAATTATCTGTATGTCACGAGGCATTTTTCATTTAG	2030 a.u.
CTAGCAATCAACGCGCACGCGAATGGCCAAGAGTTC	510 a.u.
CCTAACTACTATATTGAGGTGACATAGCTTCGTACA	556 a.u.

Study 3 — technique: protein binding microarray; molecule type: double-stranded DNA, one strand shown; medium: in vitro; concentration: not given; reference: not given; reading: higher = stronger binding
Target: Histone acetyltransferase KAT6A, both winged helices, GST fusion (KAT6A, Homo sapiens, UniProt Q92794, residues 1-181)
Notes: 8-mer, flanks averaged, mean of 2 arrays, mostly near background
Residues (chain): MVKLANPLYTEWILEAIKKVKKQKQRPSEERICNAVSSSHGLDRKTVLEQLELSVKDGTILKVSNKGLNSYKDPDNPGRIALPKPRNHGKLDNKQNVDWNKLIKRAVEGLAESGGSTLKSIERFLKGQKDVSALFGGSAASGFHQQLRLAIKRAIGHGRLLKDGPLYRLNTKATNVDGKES
Sequence	E-score
GACCTGCA	-0.163
AACATGTC	0.061
AATATCGG	0.106
AATTCGAC	-0.099
AGATCGCC	0.0279
CATCACCC	0.0689
AGCTGGGG	-0.301
TGTACACA	-0.0158
GTCATTGA	-0.113
CAGTTCGA	-0.0724
CGTTCGGC	0.209
AAAGGCTA	-0.223
ACGCCGTG	0.303
ATACGGAG	0.137
ACAGTTCC	0.136
GAACTCCA	-0.0579
AGAATAAG	-0.149
CAGTAGGC	-0.19
CTCGCTTC	0.0498
CACCCGTA	0.163
CGCTGAGC	0.19
CACCTATC	-0.0992
GGTTGAGA	-0.00048
ATAGTCTG	-0.126
CCTCGTAC	0.1

Study 4 — target: CCNA2, cyclin fold, Cln2 fusion (human); technique: yeast growth competition, sequencing; medium: yeast; notes: strong parent motif; reference: not given; reading: higher = stronger binding
Starting sequence: BRCA2 docking peptide (human); PSIKRNLLNEFDR; partner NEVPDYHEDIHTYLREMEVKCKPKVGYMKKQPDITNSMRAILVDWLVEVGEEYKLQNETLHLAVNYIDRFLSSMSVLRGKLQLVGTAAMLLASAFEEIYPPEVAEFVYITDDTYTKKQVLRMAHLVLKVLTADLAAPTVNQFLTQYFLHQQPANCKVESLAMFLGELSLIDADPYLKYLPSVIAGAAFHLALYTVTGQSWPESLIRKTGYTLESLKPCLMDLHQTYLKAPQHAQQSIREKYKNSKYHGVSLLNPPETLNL
Change	normalised enrichment score
K4H	3.36
E10C	1.81
R5M	1.03
S2D	3.78
K4S	3.96
L8S	2.69
L8I	4.66
P1A	4.68
N9Y	5.96
R13A	5.78
F11S	-0.384
I3Q	-0.658
P1K	6.5
F11D	0.317
R5S	0.734
N6I	1.67
F11Y	3.18
P1D	4.67
R5H	0.0656
E10H	2.15
I3D	-0.774
P1M	4.53
N6G	0.0728
R5A	0.251
